Results gathered from unrelated publications.
Each numbered part is a random draw from the data of one study; scales do not carry over between parts.

Set 1
Target: RNA binding protein fox-1 homolog 2, RRM domain, GST-SBP tag (RBFOX2, Homo sapiens, UniProt O43251-10, residues 100-194)
Technique: RNA Bind-n-Seq
Molecule type: RNA
Matrix: in vitro
Concentration: 365 nM
Setting: natural RNA segment, single round, ends assumed
Relative to: no-protein control
Direction: higher = stronger binding
Endpoint: RBNS enrichment (R)
Construct (chain): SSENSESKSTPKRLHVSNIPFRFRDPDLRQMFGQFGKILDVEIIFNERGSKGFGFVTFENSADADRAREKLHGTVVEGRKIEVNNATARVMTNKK
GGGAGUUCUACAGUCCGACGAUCAAGCUUUUCUCUAGCCUACAGUAGGGUCGAUCUGCCGAGCUGCUGAAUAACCCUGCUUGAUUUUAGCAACAAGAGACAAUCCAUGCCAUGCUUUUAUCCUGAGAAACCUGUGGAAUUCUCGGGUGCCAA: 0.9
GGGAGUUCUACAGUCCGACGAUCGACAGUUUUGAAAGACAUUAAUUCUCAUUUUCUUCUAGUCAGGAGUAAUACAAGCAAACAAGUGUCCGUUUUGAAUUCUGAUUUGUAAUCUGAAUACUAAACAUAUUAGAUGGAAUUCUCGGGUGCCAA: 0.303
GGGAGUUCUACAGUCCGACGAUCGAUGCUCCGAGAGCUACUGCAUCUGGGACUGUGUCCUUUCUCUGGGAGGCAGUCUUGUCACCUCCCAUCCAACAGUUCACAAACGGCUCAGUUCCUUCAUUCAGAUGGUUUGGAAUUCUCGGGUGCCAA: 0.696
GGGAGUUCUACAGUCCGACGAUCCCAUGGUACCUGCACACCUAAAACACUAGGCCACGCAUCUGAUCUGUAGUCACAUGACUAAGCCAAGAGGAAGGAGCAAGACUCAAGACAUGAUUGAUGGAUGUUAAAGUUGGAAUUCUCGGGUGCCAA: 0.303
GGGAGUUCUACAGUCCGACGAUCAACCCCUCCUUUUUGAACUUACUGUGACAAGCACAGGAACGGUCAGAAACUGGGCUCAUCACACCAAGGCAAAGCAACGGGCGAGUCUUCCUCCUUGUCCUAGUUACUGCUGGAAUUCUCGGGUGCCAA: 0.201
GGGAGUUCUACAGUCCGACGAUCGCAUGAGCUAGAGUGGAUAUUCCUCCCCUAGAAGAGGAGAUGGGAGGAAAUGCAGUUUCAUGUAAUCCCUGUGAAGAGUGCCUAUGCCCACAGCCCAGUGGGUCCUUGUUUGGAAUUCUCGGGUGCCAA: 3.22
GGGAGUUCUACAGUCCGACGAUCUCCGGCAGCAGCCUUCUCUGGAGGACUGAUACACAGAAGGAAACGAAGGCGCUUGCUGUGGCCGCAGACCGUUCUCCAGGACUCUUUUUUUACCUUGAGCACUUGCCUCCUGGAAUUCUCGGGUGCCAA: 0.548
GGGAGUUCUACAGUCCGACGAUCCCACCUGCAUUCCUGAGGAACUCUUGUUUACUGGUGCUGUGGCUCACAGGUCCCCCUCUGUGCCCUCCUUCAGCUUCCAGGCCAGACUUAGUAGAUAAAUAGUAAUAAUAUGGAAUUCUCGGGUGCCAA: 0.544

Set 2
Target: Fragile X messenger ribonucleoprotein 1, C-terminal low-complexity region (Fmr1, Mus musculus, UniProt P35922)
Technique: RNA Bind-n-Seq
Molecule type: RNA
Matrix: in vitro
Concentration: 200 nM
Setting: whole 134-nt RNA, ends assumed
Added: 150 mM LiCl
Relative to: input library
Direction: higher = stronger binding
Endpoint: log2 enrichment
Library: 7-deaza-guanosine replaces G
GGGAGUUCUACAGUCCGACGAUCCCUGUGCUACACAUCGUAUGUACCGAAUCAAAUUUUUUUAAAUUUUUUUAAAUUUUUAAAAAAGUAUUAUGUUACGCCGUUCGGAUCUGCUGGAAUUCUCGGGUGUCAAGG: -2.87
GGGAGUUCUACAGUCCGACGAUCUGUGCUACACAUCGUAUGUACCGAAUCGGGCCCCCCCGGGGCCCCCCCGGGCCCCCCCGGGGAAAGUAUUAUGUUACGCCGUUCGGAUCUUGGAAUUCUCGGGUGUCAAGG: -2.33
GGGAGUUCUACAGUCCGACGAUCGUCCUGUGCUACACAUCGUAUGUACCGAAUCGGGAAAGGGAAAAAAAGGGUUUUUGGGAAAGUAUUAUGUUACGCCGUUCGGAUCUGCACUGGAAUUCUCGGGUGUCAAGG: -1.41
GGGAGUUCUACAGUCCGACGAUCUUGUCUUCUGAGAUGUUGGGCCCCUCUUGGGAUGGAGAUGAAGCAGAAUCCACUGGUGAAAUCAUUAGACUUGGAGACACAGCACACACCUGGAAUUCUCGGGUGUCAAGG: -0.291
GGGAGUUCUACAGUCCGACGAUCCCUGUGCUACACAUCGUAUGUACCGAAUCGGGGAAAAAGGGGAAAAAGGGGAAAAAGGGGAAAGUAUUAUGUUACGCCGUUCGGAUCUGCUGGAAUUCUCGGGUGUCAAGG: 1.08
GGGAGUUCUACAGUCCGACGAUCUCAAGUCCUGUGCUACACAUCGUAUGUACCGAAUCGGGCCGGGCCGGGGCCGGGGAAAGUAUUAUGUUACGCCGUUCGGAUCUGCACUUCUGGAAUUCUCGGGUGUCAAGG: -0.198

Set 3
Target: Interferon regulatory factor 5, full length, phosphomimetic (IRF5, Homo sapiens, UniProt Q13568-2, residues 1-514, K96S/S451D/S453D/S456D/S462D)
Technique: protein-binding microarray
Molecule type: double-stranded DNA, one strand shown
Matrix: in vitro
Concentration: 250 nM
Setting: 60-bp whole probe
Added: salmon DNA 0.4 mg/ml
Relative to: random background probes
Direction: higher = stronger binding
Endpoint: log fluorescence
All sequences stand within: GCCTAGCAC … GTCTTGATTCGCTTGACGCTGCTG
GTGTTCTGGGCAGCAGAGGGGTGCTAG: -0.85 z-score
TTAGGTTTCGGTTCCGCTTAGTGCTAG: 10.4 z-score
TCACCATTAAATTTTAAACTGTGCTAG: 0.456 z-score
TCACATCTTCCTCTGCCACTGTGCTAG: 0.561 z-score
TTAGATCTGAGTATCGATTAGTGCTAG: 6.59 z-score
GACGGTATCGGGAGTGGGGACGTGCTA: 0.99 z-score
TCAAGACTCATAATGGCACTGTGCTAG: -0.0897 z-score
TTAGGTTTCGACACTGGGTGAGTGCTA: 5.79 z-score

Mixed results
PhoQ, residues 284 288 289 292 302 303 SQSLSM
fold induction (PhoP, residues 12 14 15 18 19 QWHVF (Escherichia coli, UniProt P23836); Sort-seq, refers to: YFP reporter; E. coli; PhoQ-PhoP variant library, added: 10 µM Mg2+; relative to: high Mg2+ state, higher = stronger signaling): 2.65

A few entries again (mixed results):
PhoQ, residues 284 288 289 292 302 303 SQSLSM
fold induction (PhoP, residues 12 14 15 18 19 QWHVF (Escherichia coli, UniProt P23836); Sort-seq, refers to: YFP reporter; E. coli; PhoQ-PhoP variant library, added: 10 µM Mg2+; relative to: high Mg2+ state, higher = stronger signaling): 2.65
